Assay results from different studies.
A part holds a random share of what one study measured.

Block 1
Target: Prothrombin, mature alpha-thrombin (F2, Homo sapiens, UniProt P00734)
Technique: aptamer microarray, sandwich
Form: DNA with 2'F-ANA
Sample: in vitro
Tested at: 200 nM
Setting: whole 15-mer aptamer, many near background
With: Cy3 exosite-II aptamer, 400 nM
Direction: higher = stronger binding
Measurement: mean fluorescence intensity
Oligonucleotide: GGTTGGTGTGGTTGG
Modification = 2'F-ANA at 7 10 11 13 14 15; value = 119 a.u.
Modification = 2'F-ANA at 15; value = 615 a.u.
Modification = 2'F-ANA at 2 5 7 9 10 13 14 15; value = 45.9 a.u.
Modification = 2'F-ANA at 1 3 4 6 9 10 13; value = 56.4 a.u.
Modification = 2'F-ANA at 2 3 4 5 6 9 10 15; value = 52.4 a.u.
Modification = 2'F-ANA at 1 4 5 6 8 9 11 13 14; value = 50.3 a.u.
Modification = 2'F-ANA at 1 5 7 10 12; value = 46.5 a.u.

Block 2
Target: Interferon regulatory factor 5, full length, phosphomimetic (IRF5, Homo sapiens, UniProt Q13568-2, residues 1-514, S451D/S453D/S456D/S462D)
Technique: protein-binding microarray
Form: double-stranded DNA, one strand shown
Sample: in vitro
Tested at: 940 nM top
Setting: 60-bp whole probe
With: salmon DNA 0.4 mg/ml
Baseline: random background probes
Direction: higher = stronger binding
Measurement: fitted relative affinity
Constant ends, left off below: GCCTAGCAC … GTCTTGATTCGCTTGACGCTGCTG
Oligonucleotide = TTAGATTTCACACTGGATTAGTGCTAG; value = 0.261 z-score
Oligonucleotide = GACGGTTTCGGGTTTCAGGACGTGCTA; value = 8.47 z-score
Oligonucleotide = TCAACTAGGAGTTTTCAGACTGTGCTA; value = -0.37 z-score
Oligonucleotide = TTAGAATTGAGTCTCGATTAGTGCTAG; value = 3.5 z-score
Oligonucleotide = CTCCCTTTCTCTCTGTGACAGTGCTAG; value = 1.81 z-score
Oligonucleotide = GACCAACTGAGACTGGAGACGTGCTAG; value = 0.0111 z-score

Block 3
Target: Histone acetyltransferase KAT6A, winged helix 2, GST fusion (KAT6A, Homo sapiens, UniProt Q92794, residues 85-181)
Technique: protein binding microarray
Form: double-stranded DNA, one strand shown
Sample: in vitro
Tested at: not given
Setting: 8-mer, flanks averaged, mean of 2 arrays, mostly near background
Baseline: not given
Direction: higher = stronger binding
Measurement: E-score
Target sequence (chain): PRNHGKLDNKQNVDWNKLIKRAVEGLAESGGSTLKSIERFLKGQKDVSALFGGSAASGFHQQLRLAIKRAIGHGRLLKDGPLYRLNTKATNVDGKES
Oligonucleotide = GTTCCAAC; value = 0.0341
Oligonucleotide = CTTGGGTA; value = -0.0791
Oligonucleotide = AAATGAGT; value = -0.0157
Oligonucleotide = AGTAAACG; value = -0.163
Oligonucleotide = TATAAGAA; value = -0.185
Oligonucleotide = ATTGGTAC; value = -0.112
Oligonucleotide = AAAACGGG; value = 0.00583
Oligonucleotide = AAGAGGGA; value = -0.0508
Oligonucleotide = ATTGGCGG; value = 0.133
Oligonucleotide = CGTGTAGC; value = -0.0557
Oligonucleotide = AGCATGCC; value = 0.0101
Oligonucleotide = CATCATAA; value = -0.144
Oligonucleotide = TGACTTAA; value = 0.0266

Mixed results
Substance = PhoQ, residues 284 288 289 292 302 303 AGHLVA; target = PhoP, residues 12 14 15 18 19 NQFFI (Escherichia coli, UniProt P23836); test = Sort-seq, item: YFP reporter; test system = E. coli; conditions = PhoQ-PhoP variant library, with: 10 µM Mg2+; scale = baseline: high Mg2+ state, higher = stronger signaling; measurement = fold induction; value = 6.79

A few entries again (block 1):
Modification = 2'F-ANA at 7 10 11 13 14 15; value = 119 a.u.
Modification = 2'F-ANA at 15; value = 615 a.u.
